Measured values from different studies.
Parts stem from different laboratories: compare values within a part only. Values joined by “and” are separate records of one study, mostly repeats; a detail may differ.
Chain of UniProt O43781 (whole entry, looked up): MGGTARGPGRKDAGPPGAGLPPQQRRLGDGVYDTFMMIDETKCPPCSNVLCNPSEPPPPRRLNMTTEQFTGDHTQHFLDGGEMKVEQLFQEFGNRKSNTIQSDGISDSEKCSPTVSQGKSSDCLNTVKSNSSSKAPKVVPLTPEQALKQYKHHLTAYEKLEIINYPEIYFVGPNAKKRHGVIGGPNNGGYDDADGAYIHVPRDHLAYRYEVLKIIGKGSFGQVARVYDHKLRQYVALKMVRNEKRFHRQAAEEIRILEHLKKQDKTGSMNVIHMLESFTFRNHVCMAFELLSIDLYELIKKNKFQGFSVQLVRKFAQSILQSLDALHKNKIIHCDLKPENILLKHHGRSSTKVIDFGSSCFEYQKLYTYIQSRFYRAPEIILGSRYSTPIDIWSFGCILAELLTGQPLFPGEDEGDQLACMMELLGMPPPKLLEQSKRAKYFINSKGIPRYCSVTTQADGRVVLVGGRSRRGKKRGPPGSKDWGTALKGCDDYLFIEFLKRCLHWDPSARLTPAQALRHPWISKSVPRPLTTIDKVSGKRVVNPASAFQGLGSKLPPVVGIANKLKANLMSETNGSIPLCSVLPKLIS

Set 1 — method: NanoBRET; concentration: 1 µM
SMILES: COc1cc(-c2nc3ccc(C(=O)NCCCN(C)C)cc3n2C2CCC2)cc(OC)c1OC
For WEE2 (Homo sapiens, UniProt P0C1S8): target occupancy read -1.08%.
BTK (Homo sapiens, UniProt Q06187) — target occupancy: -1.97%.
It gave 1% for target occupancy (Aurora kinase A (AURKA, Homo sapiens, UniProt O14965)).
The target occupancy was -4.3% (FGFR1 (Homo sapiens, UniProt P11362)).
It gave -1.24% for target occupancy (PLK4 (Homo sapiens, UniProt O00444)).
The target occupancy was 3.07% (RIPK2 (Homo sapiens, UniProt O43353)).
The target occupancy was 3.22% (LRRK2 (Homo sapiens, UniProt Q5S007)).
For TLK1 (Homo sapiens, UniProt Q9UKI8): target occupancy read 1.51%.
The target occupancy was 0.46% (MAP4K1 (Homo sapiens, UniProt Q92918)).
MAPK8 (Homo sapiens, UniProt P45983) — target occupancy: -1.32%.
The target occupancy was 2.72% (CSNK1A1L (Homo sapiens, UniProt Q8N752)).
For EPHA7 (Homo sapiens, UniProt Q15375): target occupancy read -6.69%.
NTRK2 (Homo sapiens, UniProt Q16620) — target occupancy: -2.69%.
It gave 2.07% for target occupancy (MAP3K11 (Homo sapiens, UniProt Q16584)).

Set 2 — cell line: U-87 MG; concentration: concentration not given; relative to: DMSO
Compound: CCN1/C(=C/C=C2\CCCC(/C=C/C3=[N+](CC)c4ccccc4C3(C)C)=C2NCCCCCCCCN2CCC(Nc3nc4ccccc4n3Cc3ccc(F)cc3)CC2)C(C)(C)c2ccccc21
measured: TMEM171 mRNA — “log2 fold change”: -1.87.
measured: SH3RF1 mRNA — “log2 fold change”: 0.96.
The “log2 fold change” was 0.934 (measured: SGF29 mRNA).
It gave -1.24 for “log2 fold change” (measured: PRADC1 mRNA).
The “log2 fold change” was -1.57 (measured: BDKRB1 mRNA).
It gave 1.16 for “log2 fold change” (measured: RALA mRNA).
The “log2 fold change” was -1.04 (measured: PTPRJ mRNA).
measured: TMEM268 mRNA — “log2 fold change”: 1.45.
measured: NID2 mRNA — “log2 fold change”: -1.73.
For measured: CENPJ mRNA: “log2 fold change” read -1.27.
It gave 0.875 for “log2 fold change” (measured: RRP12 mRNA).
measured: LRIG3 mRNA — “log2 fold change”: -1.75.
The “log2 fold change” was -1.11 (measured: SYNC mRNA).
The “log2 fold change” was 1.38 (measured: TTC39B mRNA).
It gave -1.52 for “log2 fold change” (measured: CREB3L1 mRNA).
The “log2 fold change” was 1.2 (measured: RORB mRNA).

Set 3 — effect on: thermal unfolding; method: differential scanning fluorimetry; concentration: 5.5 µM; direction: higher = more unfolded
Compound: C[C@@H]1CN(c2ccc(-c3cc(C(=O)NCCOCCOCCOCCOCCNC(=O)/C=C/c4[nH]cc(C(=O)N[C@@H](CC(N)=O)c5ccc(F)c(Cl)c5)c4-c4ccc(Cl)cc4F)ccc3F)cc2NC(=O)c2c[nH]c(=O)cc2C(F)(F)F)C[C@H](C)N1C
DCAF1: DDB1- and CUL4-associated factor 1 (DCAF1, Homo sapiens, UniProt Q9Y4B6)
Chain of UniProt Q9Y4B6 (whole entry, looked up): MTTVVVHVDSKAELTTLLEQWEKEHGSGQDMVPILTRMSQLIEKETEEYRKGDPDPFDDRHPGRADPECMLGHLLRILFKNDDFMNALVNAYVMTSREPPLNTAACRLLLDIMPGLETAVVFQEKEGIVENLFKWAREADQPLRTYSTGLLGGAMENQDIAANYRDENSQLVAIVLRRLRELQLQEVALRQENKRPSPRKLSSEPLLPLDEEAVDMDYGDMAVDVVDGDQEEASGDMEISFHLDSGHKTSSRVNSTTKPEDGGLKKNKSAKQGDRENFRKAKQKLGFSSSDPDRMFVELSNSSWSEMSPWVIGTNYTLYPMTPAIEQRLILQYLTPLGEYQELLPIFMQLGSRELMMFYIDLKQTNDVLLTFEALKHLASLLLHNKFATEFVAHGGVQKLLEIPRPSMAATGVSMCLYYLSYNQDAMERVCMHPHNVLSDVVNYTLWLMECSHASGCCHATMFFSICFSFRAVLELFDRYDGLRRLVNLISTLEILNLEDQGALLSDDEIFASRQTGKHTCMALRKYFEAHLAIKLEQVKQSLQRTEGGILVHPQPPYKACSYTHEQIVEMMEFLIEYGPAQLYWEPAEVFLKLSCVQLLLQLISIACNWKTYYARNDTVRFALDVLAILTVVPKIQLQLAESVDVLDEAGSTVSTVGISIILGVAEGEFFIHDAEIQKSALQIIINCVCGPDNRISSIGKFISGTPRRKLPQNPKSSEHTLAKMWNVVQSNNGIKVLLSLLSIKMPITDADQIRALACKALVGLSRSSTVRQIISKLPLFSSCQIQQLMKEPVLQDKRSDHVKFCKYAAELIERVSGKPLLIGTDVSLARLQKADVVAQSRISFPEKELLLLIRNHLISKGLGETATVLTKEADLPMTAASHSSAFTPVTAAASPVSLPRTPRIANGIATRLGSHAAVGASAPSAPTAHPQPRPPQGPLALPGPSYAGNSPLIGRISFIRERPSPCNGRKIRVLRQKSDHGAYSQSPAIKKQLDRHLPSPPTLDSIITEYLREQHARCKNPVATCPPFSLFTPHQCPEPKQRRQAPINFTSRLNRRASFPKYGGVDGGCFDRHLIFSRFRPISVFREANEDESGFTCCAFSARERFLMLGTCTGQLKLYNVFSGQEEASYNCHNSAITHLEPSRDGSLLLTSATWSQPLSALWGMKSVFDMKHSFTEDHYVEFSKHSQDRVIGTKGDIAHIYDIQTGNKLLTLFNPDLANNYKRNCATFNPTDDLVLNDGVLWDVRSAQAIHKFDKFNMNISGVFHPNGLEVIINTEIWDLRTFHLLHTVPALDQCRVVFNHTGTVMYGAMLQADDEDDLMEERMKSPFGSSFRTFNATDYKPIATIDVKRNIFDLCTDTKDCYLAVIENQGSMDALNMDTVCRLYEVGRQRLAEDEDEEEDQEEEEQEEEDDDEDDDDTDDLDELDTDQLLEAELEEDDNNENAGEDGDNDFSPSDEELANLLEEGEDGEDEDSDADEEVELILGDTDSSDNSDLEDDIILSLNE
WDR5: WD repeat-containing protein 5 (WDR5, Homo sapiens, UniProt P61964)
DCAF1; 30.4 °C — “SYPRO Orange fluorescence”: 9550 a.u.
The “SYPRO Orange fluorescence” was 15000 a.u. (WDR5; 43.2 °C).
It gave 37500 a.u. for “SYPRO Orange fluorescence” (DCAF1; 87.41 °C).
The “SYPRO Orange fluorescence” was 53900 a.u. (DCAF1; 63.01 °C).
It gave 12300 a.u. for “SYPRO Orange fluorescence” (DCAF1; 42.6 °C).
For DCAF1; 47.8 °C: “SYPRO Orange fluorescence” read 14200 a.u.
It gave 40500 a.u. for “SYPRO Orange fluorescence” (DCAF1; 84.81 °C).
WDR5; 27 °C — “SYPRO Orange fluorescence”: 13000 a.u.
DCAF1; 86.01 °C — “SYPRO Orange fluorescence”: 39000 a.u.
DCAF1; 91.21 °C — “SYPRO Orange fluorescence”: 33800 a.u.
The “SYPRO Orange fluorescence” was 28800 a.u. (DCAF1; 57.41 °C).

Set 4
SMILES: Cc1nc2c([nH]1)c(=O)[nH]c(=S)n2Cc1cccc(OC/C(=C/F)CN)c1
MPO: Myeloperoxidase (MPO, Homo sapiens, UniProt P05164)
Chain of UniProt P05164 (whole entry, looked up): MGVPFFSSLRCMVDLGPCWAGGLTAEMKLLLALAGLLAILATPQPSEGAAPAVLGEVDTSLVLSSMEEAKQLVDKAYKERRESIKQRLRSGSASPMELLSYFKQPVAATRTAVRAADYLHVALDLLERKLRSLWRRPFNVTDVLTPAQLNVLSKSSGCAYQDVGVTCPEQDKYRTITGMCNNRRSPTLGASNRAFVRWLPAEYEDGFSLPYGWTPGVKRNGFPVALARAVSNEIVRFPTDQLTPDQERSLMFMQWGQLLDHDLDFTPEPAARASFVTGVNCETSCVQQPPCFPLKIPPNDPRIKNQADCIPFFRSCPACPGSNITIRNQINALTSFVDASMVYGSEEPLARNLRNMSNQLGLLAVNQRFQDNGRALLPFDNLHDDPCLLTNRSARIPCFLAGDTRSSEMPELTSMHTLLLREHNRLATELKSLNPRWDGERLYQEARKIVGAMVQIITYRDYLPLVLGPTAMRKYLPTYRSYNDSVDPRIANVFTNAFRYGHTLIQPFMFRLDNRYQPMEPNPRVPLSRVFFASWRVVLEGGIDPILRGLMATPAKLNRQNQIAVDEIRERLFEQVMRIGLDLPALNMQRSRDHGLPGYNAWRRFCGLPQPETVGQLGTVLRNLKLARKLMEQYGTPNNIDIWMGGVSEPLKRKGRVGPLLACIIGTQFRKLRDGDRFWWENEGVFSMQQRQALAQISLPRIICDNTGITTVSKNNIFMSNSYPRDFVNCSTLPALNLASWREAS
AOC3: Amine oxidase [copper-containing] 3 (AOC3, Homo sapiens, UniProt Q16853)
Chain of UniProt Q16853 (whole entry, looked up): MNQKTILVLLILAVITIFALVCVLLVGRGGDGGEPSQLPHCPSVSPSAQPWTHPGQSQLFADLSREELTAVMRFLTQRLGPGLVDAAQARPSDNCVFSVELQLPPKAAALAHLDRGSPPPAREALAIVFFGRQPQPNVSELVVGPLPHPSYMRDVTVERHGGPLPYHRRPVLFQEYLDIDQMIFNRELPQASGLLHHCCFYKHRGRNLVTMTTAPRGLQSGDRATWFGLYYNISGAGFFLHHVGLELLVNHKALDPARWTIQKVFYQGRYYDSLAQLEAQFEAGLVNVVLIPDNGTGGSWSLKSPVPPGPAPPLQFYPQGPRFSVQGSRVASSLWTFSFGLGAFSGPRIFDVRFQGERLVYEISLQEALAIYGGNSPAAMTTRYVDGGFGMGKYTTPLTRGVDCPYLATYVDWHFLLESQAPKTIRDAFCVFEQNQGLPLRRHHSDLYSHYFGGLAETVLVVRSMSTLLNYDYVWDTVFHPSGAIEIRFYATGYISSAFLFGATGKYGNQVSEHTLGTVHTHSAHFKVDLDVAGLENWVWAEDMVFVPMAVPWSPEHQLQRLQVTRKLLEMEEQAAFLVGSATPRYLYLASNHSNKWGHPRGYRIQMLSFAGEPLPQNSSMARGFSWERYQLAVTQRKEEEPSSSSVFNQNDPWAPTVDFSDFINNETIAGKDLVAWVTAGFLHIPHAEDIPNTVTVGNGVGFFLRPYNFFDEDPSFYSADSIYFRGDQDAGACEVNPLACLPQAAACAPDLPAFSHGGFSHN
For MPO; Amplex Red; 0.0206 µM: inhibition read -3.51% and -11.8%.
MPO; enzyme activity, inhibitor, fluorescence; 0.3704 µM — inhibition: 38.3%.
The inhibition was 68.1% (MPO; enzyme activity, inhibitor, fluorescence; 1.111 µM).
The inhibition was 95.7% and 95.3% (MPO; enzyme activity, inhibitor, fluorescence; 5 µM).
AOC3; enzyme activity, inhibitor, fluorescence; 13.7 nM — inhibition: 31.6% and 43.1% and 30.1% and 37.4%.
For MPO; enzyme activity, inhibitor, fluorescence; 3.333 µM: inhibition read 87.7%.
For AOC3; enzyme activity, inhibitor, fluorescence; 3.333 µM: inhibition read 100% and 97.8%.
MPO; enzyme activity, inhibitor, fluorescence; 13.7 nM — inhibition: -0.725%.

Set 5 — concentration: 1 µM
Structure (SMILES): CCC1(c2cccc(-c3cn(C)nc3C)c2)C2=C(Nc3n[nH]cc31)C(F)C(C)(C)CC2=O (single isomer, unassigned)
GAK (Homo sapiens, UniProt O14976); binding, competition with immobilised ligand — remaining binding: 100%.
PIK3C3 (Homo sapiens, UniProt Q8NEB9); kinase binding, KINOMEscan; relative to: DMSO control — remaining binding: 88%.
The remaining binding was 100% (KDR (Homo sapiens, UniProt P35968); binding, competition with immobilised ligand).
It gave 91% for remaining binding (ZAP70 (Homo sapiens, UniProt P43403); binding, competition with immobilised ligand).
HIPK4 (Homo sapiens, UniProt Q8NE63); binding, competition with immobilised ligand — remaining binding: 100%.
It gave 89% for remaining binding (EGFR (Homo sapiens, UniProt P00533, del747-750/T751S); kinase binding, KINOMEscan; relative to: DMSO control).
DAPK3 (Homo sapiens, UniProt O43293); kinase binding, KINOMEscan; relative to: DMSO control — remaining binding: 100%.
It gave 92% for remaining binding (AKT3 (Homo sapiens, UniProt Q9Y243); kinase binding, KINOMEscan; relative to: DMSO control).
The remaining binding was 100% (NEK9 (Homo sapiens, UniProt Q8TD19); kinase binding, KINOMEscan; relative to: DMSO control).
It gave 100% for remaining binding (EPHB6 (Homo sapiens, UniProt O15197); kinase binding, KINOMEscan; relative to: DMSO control).
For DYRK1A (Homo sapiens, UniProt Q13627); kinase binding, KINOMEscan; relative to: DMSO control: remaining binding read 69%.
TLK1 (Homo sapiens, UniProt Q9UKI8); kinase binding, KINOMEscan; relative to: DMSO control — remaining binding: 96%.
The remaining binding was 97% (TRPM6 (Homo sapiens, UniProt Q9BX84); kinase binding, KINOMEscan; relative to: DMSO control).
The remaining binding was 95% (MELK (Homo sapiens, UniProt Q14680); kinase binding, KINOMEscan; relative to: DMSO control).
It gave 100% for remaining binding (MAP2K6 (Homo sapiens, UniProt P52564); binding, competition with immobilised ligand).
For PLK3 (Homo sapiens, UniProt Q9H4B4); binding, competition with immobilised ligand: remaining binding read 83%.
The remaining binding was 93% (NEK3 (Homo sapiens, UniProt P51956); binding, competition with immobilised ligand).
RET (Homo sapiens, UniProt P07949, V804L); binding, competition with immobilised ligand — remaining binding: 100%.
It gave 90% for remaining binding (Mast/stem cell growth factor receptor Kit, autoinhibited (KIT, Homo sapiens, UniProt P10721); binding, competition with immobilised ligand).
For FLT1 (Homo sapiens, UniProt P17948); binding, competition with immobilised ligand: remaining binding read 100%.

Set 6
Compound: Cc1ncsc1-c1ccc(C(CO)NC(=O)C2CC(O)CN2C(=O)C(C(C)C)n2cc(-c3ccc(COc4c(-c5c(C)c(F)cc6[nH]ncc56)c(C5CC5)cc5c(N6CC7CC6CN7)nc(OC6CCOCC6)nc45)cc3)nn2)cc1 (stereo not shown)
For mouse, HT-29 xenograft; sc, 30 mg/kg once daily, day 10: body weight read 21 g and 19.4 g and 20.7 g and 18.4 g and 17 g.
The body weight was 23.3 g (mouse, GP2d xenograft; 30 mg/kg once weekly, day 0).
mouse, lung LXFA sample A PDX; 10 mg/kg twice weekly, day 9 — body weight: 26.5 g.
It gave 19.2 g and 18.3 g and 19.3 g and 20.4 g and 18.1 g for body weight (mouse, A-375 xenograft; sc, 30 mg/kg once daily, day 13).
It gave 19.9 g and 21.3 g and 18.9 g and 17.8 g for body weight (mouse, PK-59 xenograft; subcutaneous, 30 mg/kg once daily, day 1).
It gave 17.9 g and 18.4 g and 18.9 g and 19.5 g for body weight (mouse, A-375 xenograft; sc, 30 mg/kg once daily, day 6).

Set 7
SMILES: CNc1ncc2cc(-c3cc(OC)cc(OC)c3Cl)c(=O)n(CCc3ccc(NC(=O)C(C#N)=CC(C)(C)N4CCOCC4)cc3)c2n1
It gave 45% for inhibition (RET (Homo sapiens, UniProt P07949); kinase activity; 1 µM).
MAPK13 (Homo sapiens, UniProt O15264); kinase activity; 0.1 µM — inhibition: -1%.
PRKCI (Homo sapiens, UniProt P41743); kinase activity; 0.1 µM — inhibition: -4%.
EPHA4 (Homo sapiens, UniProt P54764); kinase activity; 1 µM — inhibition: 0%.
It gave -3% for inhibition (DYRK3 (Homo sapiens, UniProt O43781); kinase activity; 1 µM).
For FRK (Homo sapiens, UniProt P42685); kinase activity; 0.1 µM: inhibition read 5%.
The inhibition was 23% (TAOK2 (Homo sapiens, UniProt Q9UL54); kinase activity; 1 µM).
For CK1; 0.1 µM, mean: inhibition read 0%.
It gave -8% for inhibition (GSK3A (Homo sapiens, UniProt P49840); kinase activity; 0.1 µM).
TAOK3 (Homo sapiens, UniProt Q9H2K8); kinase activity; 0.1 µM — inhibition: 1%.
The inhibition was -1% (TSSK1B (Homo sapiens, UniProt Q9BXA7); kinase activity; 0.1 µM).

Single results of other studies
CDK12 with cyclin K: Cyclin-dependent kinase 12, with cyclin K (CDK12, Homo sapiens, UniProt Q9NYV4)
Chain of UniProt Q9NYV4 (whole entry, looked up): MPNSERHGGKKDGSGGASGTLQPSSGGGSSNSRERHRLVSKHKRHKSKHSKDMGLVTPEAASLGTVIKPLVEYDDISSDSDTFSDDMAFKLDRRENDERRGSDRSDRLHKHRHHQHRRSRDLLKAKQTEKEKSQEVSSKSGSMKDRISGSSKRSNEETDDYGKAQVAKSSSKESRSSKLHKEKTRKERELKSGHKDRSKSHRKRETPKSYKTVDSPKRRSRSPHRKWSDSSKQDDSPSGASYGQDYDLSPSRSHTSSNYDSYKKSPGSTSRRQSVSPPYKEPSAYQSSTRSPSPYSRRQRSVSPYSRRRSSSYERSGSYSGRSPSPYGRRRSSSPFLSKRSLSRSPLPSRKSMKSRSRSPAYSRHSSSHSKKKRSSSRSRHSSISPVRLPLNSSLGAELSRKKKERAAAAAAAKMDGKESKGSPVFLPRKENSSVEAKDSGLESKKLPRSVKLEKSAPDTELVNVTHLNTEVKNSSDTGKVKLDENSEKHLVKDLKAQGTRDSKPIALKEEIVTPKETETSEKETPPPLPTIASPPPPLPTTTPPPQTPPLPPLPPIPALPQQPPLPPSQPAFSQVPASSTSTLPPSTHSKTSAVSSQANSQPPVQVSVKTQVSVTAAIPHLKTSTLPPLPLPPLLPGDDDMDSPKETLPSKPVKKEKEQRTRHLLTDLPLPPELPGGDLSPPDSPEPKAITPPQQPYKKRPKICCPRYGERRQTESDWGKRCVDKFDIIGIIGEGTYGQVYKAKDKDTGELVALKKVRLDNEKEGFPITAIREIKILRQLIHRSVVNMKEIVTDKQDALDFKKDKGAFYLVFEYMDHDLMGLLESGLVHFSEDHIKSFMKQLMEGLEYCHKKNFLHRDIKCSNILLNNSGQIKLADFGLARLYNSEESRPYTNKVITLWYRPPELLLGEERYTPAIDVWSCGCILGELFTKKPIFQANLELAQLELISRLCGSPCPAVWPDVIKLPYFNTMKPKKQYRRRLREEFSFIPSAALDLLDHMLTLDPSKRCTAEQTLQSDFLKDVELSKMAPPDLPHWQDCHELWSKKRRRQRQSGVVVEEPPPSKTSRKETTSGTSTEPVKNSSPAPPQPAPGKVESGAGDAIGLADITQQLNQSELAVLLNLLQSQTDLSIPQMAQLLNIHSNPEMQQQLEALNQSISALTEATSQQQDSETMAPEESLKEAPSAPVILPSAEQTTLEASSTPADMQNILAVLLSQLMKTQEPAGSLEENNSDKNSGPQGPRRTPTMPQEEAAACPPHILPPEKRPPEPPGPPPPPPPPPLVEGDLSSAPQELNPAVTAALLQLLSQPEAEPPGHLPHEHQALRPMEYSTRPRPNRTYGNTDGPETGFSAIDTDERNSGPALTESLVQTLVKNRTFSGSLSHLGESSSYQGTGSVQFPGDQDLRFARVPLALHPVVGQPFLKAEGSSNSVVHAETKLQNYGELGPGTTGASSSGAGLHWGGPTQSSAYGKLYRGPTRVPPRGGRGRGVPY
`CCCCOc1nc(NCc2nc3cc(Cl)c(Cl)cc3[nH]2)c2ncn(CC)c2n1` gave an inhibition of 6.2% (CDK12 with cyclin K; kinase activity, inhibitor, ADP-Glo; 0.0027 µM).
`Cc1ccc(O)c(C)c1-c1cnc2[nH]c(-c3cnc(N4CC5(CC(CN6CCN(c7ccc(NC8CCC(=O)NC8=O)cc7F)CC6)C5)C4)nc3)cc2c1C#N` (stereo not shown): plasma concentration “not detected” (CD-1 mouse; intravenous, dose not given, 4 h).
With `CCn1cnc2c(NCc3nc4cc(Cl)c(Cl)cc4[nH]3)nc(N3CCN(c4ccccn4)CC3)nc21` the inhibition was 25.7% (CDK12 with cyclin K; kinase activity, inhibitor, ADP-Glo; 0.0741 µM).
The half-life of `Cc1ccc(O)c(C)c1-c1cnc2[nH]c(-c3cnc(N4CCC(CN5CCN(c6ccc7c(c6)C(=O)N(C6CCC(=O)NC6=O)C7=O)CC5)CC4)nc3)cc2c1C#N` (stereo not shown) is reported as 1.5 h (female CD-1 mouse, plasma; oral, 10 mg/kg, fasted).
With `CCn1cnc2c(NCc3nc4cc(Cl)c(Cl)cc4[nH]3)nc(N3CCn4ncnc4C3)nc21` the inhibition was 34.9% (CDK12 with cyclin K; kinase activity, inhibitor, ADP-Glo; 0.0247 µM).
For `Cc1ccc(O)c(C)c1-c1cnc2[nH]c(-c3cnc(N4CCC5(CC4)CC(N4CCN(c6ccc(N[C@H]7CCC(=O)N(C)C7=O)cc6F)CC4)CO5)nc3)cc2c1C#N` (single isomer, unassigned), the degradation was 7.6% (PKMYT1 (Homo sapiens, UniProt Q99640); degrader, automated immunoblot (Jess); 111.11 nM, 24 h).
Under “protein level decrease”, `CCN(CC)CC(=O)N1CCN(c2nc(NCc3nc4cc(Cl)c(Cl)cc4[nH]3)c3ncn(CC)c3n2)CC1` is recorded as ~4 fold (CDK13 (Homo sapiens, UniProt Q14004); degrader, DIA proteomics; MDA-MB-231; 100 nM, 2 h; relative to: DMSO).
For `Cc1ccc(O)c(C)c1-c1cnc2[nH]c(-c3cnc(N4CCC(CN5CCN(c6ccc(NC7CCC(=O)NC7=O)cc6F)CC5)CC4)nc3)cc2c1C#N` (stereo not shown), the Cmax was 469 ng/mL (Sprague-Dawley rat, male, plasma; oral, 10 mg/kg).
